Published values collected from several papers.
Protocols differ between the studies behind these lines. Several values in a cell are separate wells, animals, samples, runs or records. ± marks the error that the study gave.
UniProt P68402, sequence (whole entry, looked up): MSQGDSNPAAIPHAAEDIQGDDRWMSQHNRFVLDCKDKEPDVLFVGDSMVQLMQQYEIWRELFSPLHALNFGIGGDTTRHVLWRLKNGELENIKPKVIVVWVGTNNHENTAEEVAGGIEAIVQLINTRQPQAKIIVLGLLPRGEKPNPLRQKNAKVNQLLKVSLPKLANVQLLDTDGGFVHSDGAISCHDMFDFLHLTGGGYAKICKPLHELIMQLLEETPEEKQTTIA
UniProt P10632, sequence (whole entry, looked up): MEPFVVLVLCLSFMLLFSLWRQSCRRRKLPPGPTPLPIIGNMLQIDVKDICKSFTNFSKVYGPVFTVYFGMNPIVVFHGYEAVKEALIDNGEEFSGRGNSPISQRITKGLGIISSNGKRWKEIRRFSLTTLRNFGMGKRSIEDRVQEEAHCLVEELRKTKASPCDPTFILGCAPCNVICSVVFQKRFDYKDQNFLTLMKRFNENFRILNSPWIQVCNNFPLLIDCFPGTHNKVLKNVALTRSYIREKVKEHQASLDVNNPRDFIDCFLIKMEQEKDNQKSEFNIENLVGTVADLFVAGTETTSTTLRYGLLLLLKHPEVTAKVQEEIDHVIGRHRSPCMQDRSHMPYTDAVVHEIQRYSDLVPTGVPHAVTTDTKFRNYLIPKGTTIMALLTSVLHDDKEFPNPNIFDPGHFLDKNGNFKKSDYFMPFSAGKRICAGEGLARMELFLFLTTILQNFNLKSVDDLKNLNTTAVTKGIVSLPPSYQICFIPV
UniProt Q86SP6, sequence (whole entry, looked up): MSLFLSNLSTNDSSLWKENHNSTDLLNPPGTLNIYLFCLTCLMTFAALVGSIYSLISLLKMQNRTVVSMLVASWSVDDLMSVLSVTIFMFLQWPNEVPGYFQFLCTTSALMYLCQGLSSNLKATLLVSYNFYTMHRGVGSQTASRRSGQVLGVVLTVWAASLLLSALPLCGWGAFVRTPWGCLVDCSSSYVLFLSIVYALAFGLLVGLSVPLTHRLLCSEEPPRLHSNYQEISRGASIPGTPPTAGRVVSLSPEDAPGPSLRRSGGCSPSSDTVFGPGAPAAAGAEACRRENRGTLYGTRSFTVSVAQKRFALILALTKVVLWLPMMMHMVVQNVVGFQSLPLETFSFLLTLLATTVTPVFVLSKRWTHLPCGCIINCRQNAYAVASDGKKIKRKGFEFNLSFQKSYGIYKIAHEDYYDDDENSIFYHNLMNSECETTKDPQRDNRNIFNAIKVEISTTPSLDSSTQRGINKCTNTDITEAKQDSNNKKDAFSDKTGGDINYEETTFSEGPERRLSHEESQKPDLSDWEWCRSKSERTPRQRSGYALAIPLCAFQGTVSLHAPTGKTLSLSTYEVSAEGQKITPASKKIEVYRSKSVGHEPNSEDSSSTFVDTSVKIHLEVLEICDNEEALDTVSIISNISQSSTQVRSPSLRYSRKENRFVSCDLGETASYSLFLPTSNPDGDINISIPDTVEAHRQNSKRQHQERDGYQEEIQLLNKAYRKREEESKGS
UniProt P00772, sequence (whole entry, looked up): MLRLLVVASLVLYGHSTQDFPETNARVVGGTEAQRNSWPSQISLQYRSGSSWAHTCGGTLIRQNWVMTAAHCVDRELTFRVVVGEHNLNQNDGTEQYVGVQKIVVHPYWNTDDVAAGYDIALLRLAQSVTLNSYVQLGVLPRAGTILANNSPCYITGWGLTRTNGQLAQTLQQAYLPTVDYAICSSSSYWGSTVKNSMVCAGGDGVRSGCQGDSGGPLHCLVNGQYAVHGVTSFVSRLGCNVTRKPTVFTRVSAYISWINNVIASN

SMILES	target or system	test	system	setting	scale	endpoint	result
C[C@H]1O[C@@H](O[C@H]2CC[C@@]3(C)[C@@H](CC[C@]4(C)[C@@H]3C=C[C@]35OC[C@@]6(CCC(C)(C)C[C@H]63)[C@@H](O)C[C@]54C)[C@]2(C)CO)[C@H](O)[C@@H](O[C@@H]2O[C@H](CO)[C@@H](O)[C@H](O)[C@H]2O)[C@H]1O			Mus musculus, pair-fed, AAV8-TBG-Null vector, plasma	oral, high dose, 5 h		AST activity	56.9 U/L and 24.4 U/L and 38.3 U/L and 26.4 U/L and 40.7 U/L and 56.7 U/L
CC(=O)O[C@H]1CC[C@@]2(C)C(=CC[C@@H]3[C@@H]2CC[C@]2(C)C(c4cccnc4)=CC[C@@H]32)C1	African green monkey cells			5 days		CC50	9.89 µM
O=C(c1ccc(F)c(F)c1Nc1ccc(I)cc1F)N1CC(O)([C@@H]2CCCCN2)C1			human patients	oral, 1 mg/kg, dose expansion		fatal adverse events	0%
CC(C)C[C@@H]1NC(=O)[C@H](CC(C)C)NC(=O)[C@H](Cc2c[nH]c3ccccc23)NC(=O)[C@H](CO)NC(=O)[C@H](Cc2c[nH]c3ccccc23)NC(=O)[C@@H]2CCCN2C(=O)[C@H](CC(C)C)NC(=O)[C@H](Cc2c[nH]cn2)NC(=O)[C@@H]2CCCN2C(=O)[C@H](CC(N)=O)NC(=O)[C@H](C)NC(=O)[C@H](Cc2ccc(O)cc2)NC(=O)[C@H](CS)NC(=O)[C@H](CCCCNC(=O)CN2CCN(CC(=O)O)CCN(CC(=O)O)CCN(CC(=O)O)CC2)NC1=O [lutetium-177 labelled]			Balb/c mouse, female, 4T1 tumour, spleen	intravenous, 3.7 MBq, 4 h		tissue uptake	0.08 ± 0.04 %ID
O=c1ccc2ccccc2o1	NHEK	mitochondrial reserve capacity, Seahorse		24 h		point of departure	614 µM
CC(=O)Oc1ccc2c3c1O[C@H]1[C@@H](OC(C)=O)C=C[C@H]4[C@@H](C2)N(C)CC[C@@]341			rat whole blood	500 nM, 4 h, room temperature		stability bias	-7.67%
Cc1cc(C(=O)NC(C)(C)COc2cccc3c2C(N)=NS(=O)(=O)N3)cc(C)n1	Salmonella typhimurium	Ames test, confirmatory	TA1537	5000 µg/plate, added: rat liver S9	reference: solvent control	revertant ratio	1.2
CC[C@H](C)[C@H](NC(=O)[C@H](Cc1ccccc1)NC(=O)[C@H](CCC(=O)O)NC(=O)[C@H](CCCNC(=N)N)NC(=O)[C@H](C)NC(=O)[C@H](C)NC(=O)[C@H](CCC(N)=O)NC(=O)[C@H](CCC(=O)O)NC(=O)[C@H](CCC(=O)O)NC(=O)[C@H](CC(C)C)NC(=O)[C@H](Cc1ccc(O)cc1)NC(=O)[C@H](CO)NC(=O)[C@H](CO)NC(=O)[C@@H](NC(=O)[C@H](CC(=O)O)NC(=O)[C@H](CO)NC(=O)[C@@H](NC(=O)[C@H](Cc1ccccc1)NC(=O)[C@@H](NC(=O)CNC(=O)[C@H](CCC(=O)O)NC(=O)[C@H](C)NC(=O)CCc1c[nH]cn1)[C@@H](C)O)[C@@H](C)O)C(C)C)C(=O)N[C@@H](C)C(=O)N[C@@H](Cc1c[nH]c2ccccc12)C(=O)N[C@@H](CC(C)C)C(=O)N[C@H](C(=O)N[C@@H](CCCNC(=N)N)C(=O)NCC(=O)N[C@@H](CCCNC(=N)N)C(=O)N[C@@H](CCCCNC(=O)COCCOCCNC(=O)COCCOCCNC(=O)CC[C@H](NC(=O)CCCCCCCCCCCCCCCCC(=O)O)C(=O)O)C(=O)NCC(=O)NCC(=O)N[C@@H](CO)C(=O)N[C@@H](CCCCNc1c(NCCCCCN(O)C(=O)CCC(=O)NCCCCCN(O)C(=O)CCC(=O)NCCCCCN(O)C(C)=O)c(=O)c1=O)C(=O)O)C(C)C		UPLC-MS	rat, plasma	subcutaneous, 20 nmol/kg		dose-normalised AUC	72.9 kg·h/L
Oc1ccc2c3c1O[C@H]1[C@@H](O)CC[C@@]4(O)[C@@H](C2)N(CC2CCC2)CC[C@]314	Probable G-protein coupled receptor 149 (GPR149, Homo sapiens, UniProt Q86SP6)	β-arrestin recruitment, TANGO luminescence, refers to: GPR149		concentration not given	reference: basal luminescence	log2 fold change	-0.22
CC(C)CC(=O)OC[C@H]1O[C@@](C#N)(c2ccc3c(N)ncnn23)[C@H](O)[C@@H]1O	Cytochrome P450 2C8 (CYP2C8, Homo sapiens, UniProt P10632)	metabolic stability	recombinant enzyme	1 µM		intrinsic clearance	4.47 ± 0.13 µL/min/pmol
CC(Cc1ccccc1)NCCC(c1ccccc1)c1ccccc1 (stereo not drawn)	African green monkey cells			5 days		CC50	8.41 µM
COc1cc(Nc2ncc(F)c(Nc3ccc4c(n3)NC(=O)C(C)(C)O4)n2)cc(OC)c1OC	Chymotrypsin-like elastase family member 1 (CELA1, Sus scrofa, UniProt P00772)	enzyme activity, inhibitor				IC50	> 10 µM
CN1[C@H]2CC[C@@H]1[C@@H](C(=O)O)[C@@H](OC(=O)c1ccccc1)C2			rat whole blood	500 nM, 4 freeze-thaw cycles		stability bias	6.71%
CC(CN(C)C)CN1c2ccccc2Sc2ccccc21 (stereo not drawn)	African green monkey cells			5 days		CC50	21.4 µM
COC(=O)[C@H]1[C@@H](OC(=O)c2ccccc2)C[C@@H]2CC[C@H]1N2			rat, whole blood	1000 nM, 4 h, room temperature, bench-top storage		stability bias	0.72%
O=C1c2c(O)c(=O)ccn2N([C@@H]2c3ccccc3SCc3c2ccc(F)c3F)[C@@H]2COCCN12			BALB/c mouse	subcutaneous, 0.25 mg/kg q24h		Cmax	17.4 ng/mL
O=C(c1ccc(Cl)cc1)N1CCN2C(=O)N(OC(=O)N3CCOc4ccccc43)C(=O)C2C1 (stereo not drawn)	Platelet-activating factor acetylhydrolase IB subunit alpha2 (Homo sapiens, UniProt P68402)	MS-based ABPP	SW-620 conditioned medium	10 µM, 1 h, 37 °C	reference: compound over DMSO, lower = more inhibition	mean protein ratio	0.95
CC(=O)[C@@]12O[C@](C)(c3ccccc3)O[C@@H]1C[C@H]1[C@@H]3CCC4=CC(=O)CC[C@]4(C)[C@H]3CC[C@@]12C	African green monkey cells			5 days		CC50	15.5 µM

Excerpt of the above:
SMILES	target or system	test	system	setting	scale	endpoint	result
COC(=O)[C@H]1[C@@H](OC(=O)c2ccccc2)C[C@@H]2CC[C@H]1N2			rat, whole blood	1000 nM, 4 h, room temperature, bench-top storage		stability bias	0.72%
